Measured values from different studies.
Every numbered part comes from another study and shows a few of its results, in no order.

Series 1 — technique: competition protein-binding microarray; molecule type: double-stranded DNA, one strand shown; matrix: in vitro; tested at: 2 µM; with: Cbf1 competitor, 0.05 µM; direction: higher = stronger binding
Target: Phosphate system positive regulatory protein PHO4, full length, GST-tagged (PHO4, Saccharomyces cerevisiae, UniProt P07270, residues 1-312)
Notes: whole 60-bp probe, lowest competitor level
Construct (chain): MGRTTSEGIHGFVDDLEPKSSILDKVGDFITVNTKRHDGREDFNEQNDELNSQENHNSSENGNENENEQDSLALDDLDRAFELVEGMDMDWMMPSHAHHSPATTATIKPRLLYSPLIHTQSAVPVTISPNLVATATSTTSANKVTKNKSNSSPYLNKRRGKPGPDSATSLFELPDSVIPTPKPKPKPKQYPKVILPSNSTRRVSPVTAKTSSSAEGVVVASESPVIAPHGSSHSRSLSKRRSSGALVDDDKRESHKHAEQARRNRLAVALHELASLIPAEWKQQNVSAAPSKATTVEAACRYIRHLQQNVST
| Strand | fluorescence intensity [a.u.] |
| --- | --- |
| CTAACGAAGGTTTGCATAGTGGGTGACAAGCCAAGTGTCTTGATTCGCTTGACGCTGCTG | 4460 |
| TTGAACATAGAAGACCGCGTGATGGATTTTAGTGCGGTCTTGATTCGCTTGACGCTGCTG | 8900 |
| TTGAGCATAATCCATCACGTGATGGACACCCATACCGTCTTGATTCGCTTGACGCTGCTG | 12500 |
| TGCCTTACTCGGTATCACATGGAAAAGACCCCCGGCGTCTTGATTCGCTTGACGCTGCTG | 6410 |
| ACTCCGGTGTTGAAGTCCGTGTCTGTCCAACCAAGAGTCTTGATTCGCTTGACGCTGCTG | 6130 |

Series 2 — technique: protein binding microarray; molecule type: double-stranded DNA, one strand shown; matrix: in vitro; tested at: not given; reference: not given; direction: higher = stronger binding
Target: Histone acetyltransferase KAT6A, winged helix 2, GST fusion (KAT6A, Homo sapiens, UniProt Q92794, residues 85-181)
Notes: 8-mer, flanks averaged, mean of 2 arrays, mostly near background
Target sequence (chain): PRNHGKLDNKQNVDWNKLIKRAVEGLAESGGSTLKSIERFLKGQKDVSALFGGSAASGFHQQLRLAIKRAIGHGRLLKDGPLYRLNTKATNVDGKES
| Strand | E-score |
| --- | --- |
| TCGGTAAA | -0.11 |
| AAGATTTA | 0.087 |
| CCCGGCTA | 0.193 |
| ATAAACAC | 0.0222 |
| ATCGCGAA | 0.164 |
| CCGTTAGG | 0.00685 |
| ATCAAACG | -0.116 |
| ACTCAGTG | 0.0473 |

Series 3 — technique: universal PBM; molecule type: double-stranded DNA, one strand shown; matrix: in vitro; tested at: 600 nM; direction: higher = stronger binding
Target: Sal-like protein 4, full length isoform A (SALL4, Homo sapiens, UniProt Q9UJQ4, residues 1-1053)
UniProt Q9UJQ4, sequence (whole entry, looked up): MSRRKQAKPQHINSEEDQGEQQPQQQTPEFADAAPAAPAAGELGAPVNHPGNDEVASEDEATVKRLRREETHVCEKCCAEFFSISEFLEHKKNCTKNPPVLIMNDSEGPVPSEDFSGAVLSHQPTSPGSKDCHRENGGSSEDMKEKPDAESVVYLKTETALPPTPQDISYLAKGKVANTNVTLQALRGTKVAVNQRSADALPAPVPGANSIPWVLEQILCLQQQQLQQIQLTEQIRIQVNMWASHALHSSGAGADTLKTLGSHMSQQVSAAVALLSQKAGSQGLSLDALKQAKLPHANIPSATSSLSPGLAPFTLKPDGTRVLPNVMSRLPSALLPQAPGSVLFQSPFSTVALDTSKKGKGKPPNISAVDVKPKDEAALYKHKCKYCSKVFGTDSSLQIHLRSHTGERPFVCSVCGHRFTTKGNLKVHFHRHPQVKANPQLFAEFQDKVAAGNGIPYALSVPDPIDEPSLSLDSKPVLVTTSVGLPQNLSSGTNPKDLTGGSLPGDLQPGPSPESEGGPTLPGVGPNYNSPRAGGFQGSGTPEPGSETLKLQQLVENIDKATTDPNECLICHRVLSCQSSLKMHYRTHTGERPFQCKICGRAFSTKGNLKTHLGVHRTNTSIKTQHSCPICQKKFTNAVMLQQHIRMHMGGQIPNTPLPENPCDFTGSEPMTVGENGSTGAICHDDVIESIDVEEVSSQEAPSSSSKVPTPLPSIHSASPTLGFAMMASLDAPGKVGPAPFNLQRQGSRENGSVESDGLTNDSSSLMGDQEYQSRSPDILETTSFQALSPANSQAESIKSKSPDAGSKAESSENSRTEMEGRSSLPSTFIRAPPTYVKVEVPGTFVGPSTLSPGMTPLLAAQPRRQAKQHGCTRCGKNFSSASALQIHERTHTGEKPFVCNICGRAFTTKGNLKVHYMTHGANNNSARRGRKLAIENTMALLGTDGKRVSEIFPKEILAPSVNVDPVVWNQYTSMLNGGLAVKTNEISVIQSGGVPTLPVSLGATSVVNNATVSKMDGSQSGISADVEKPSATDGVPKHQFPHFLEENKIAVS
Notes: 8-mer, flanks averaged, mean of replicates
| Strand | E-score |
| --- | --- |
| CGAACAGC | -0.265 |
| ATTGGAAA | 0.213 |
| ATACTCGG | 0.0598 |
| GTGCGTTA | 0.07 |
| ATACGCGA | 0.00377 |
| GGAACCAC | -0.272 |
| ATCGGGTG | -0.201 |
| TAAGGGTA | 0.0386 |

Single results of other studies
| Molecule | target | test | system | setting | scale | quantity | result |
| --- | --- | --- | --- | --- | --- | --- | --- |
| PhoQ, residues 284 288 289 292 302 303 SQSLSM | PhoP, residues 12 14 15 18 19 QYCSL (Escherichia coli, UniProt P23836) | Sort-seq, measured: YFP reporter | E. coli | PhoQ-PhoP variant library, with: 10 µM Mg2+ | reference: high Mg2+ state, higher = stronger signaling | fold induction | 8.44 |
